Experimental data gathered from unrelated publications.
Compare with care: the assays were run in different laboratories. Several values in a cell are separate wells, animals, samples, runs or records. ± gives the spread as reported.

Structure (SMILES)	test	test system	conditions	how to read	measurement	value
CC[C@H](C)[C@H](NC(=O)[C@H](CCCCN)NC(=O)[C@H](CCC(=O)O)NC(=O)[C@H](CCCCN)NC(=O)[C@H](CO)NC(=O)[C@H](CCCCN)NC(=O)[C@H](CCCNC(=N)N)NC(=O)[C@H](Cc1ccccc1)NC(=O)[C@H](Cc1ccccc1)NC(=O)[C@H](CC(=O)O)NC(=O)CNC(=O)[C@H](CC(C)C)NC(=O)[C@@H](N)CC(C)C)C(=O)NCC(=O)N[C@@H](CCCCN)C(=O)N[C@@H](CCC(=O)O)C(=O)N[C@@H](Cc1ccccc1)C(=O)N[C@@H](CCCCN)C(=O)N[C@@H](CCCNC(=N)N)C(=O)N[C@H](C(=O)N[C@H](C(=O)N[C@@H](CCC(N)=O)C(=O)N[C@@H](CCCNC(=N)N)C(=O)N[C@H](C(=O)N[C@@H](CCCCN)C(=O)N[C@@H](CC(=O)O)C(=O)N[C@@H](Cc1ccccc1)C(=O)N[C@@H](CC(C)C)C(=O)N[C@@H](CCCNC(=N)N)C(=O)N[C@@H](CC(N)=O)C(=O)N[C@@H](CC(C)C)C(=O)N[C@H](C(=O)N1CCC[C@H]1C(=O)N[C@@H](CCCNC(=N)N)C(=O)N[C@H](C(=O)N[C@@H](CCC(=O)O)C(=O)N[C@@H](CO)C(=O)O)[C@@H](C)O)C(C)C)[C@@H](C)CC)C(C)C)[C@@H](C)CC	LC-MS	buffer with human neutrophil elastase	40 µM, 540 min, pH 7.5, 37 °C	baseline: 0 h	remaining intact peptide	0.769% and 0.461% and 0.815%
CC(C)(c1ccc(O)cc1)c1ccc(O)cc1	–	zebrafish AB embryos and larvae	24 h	–	uptake	< 5%
CO[C@H]1C[C@@H]2CC[C@@H](C)[C@@](O)(O2)C(=O)C(=O)N2CCCC[C@H]2C(=O)O[C@H]([C@H](C)C[C@@H]2CC[C@@H](OC(=O)NCCOCCOCCOCCOCCOCCOCCOCCOCCC(=O)N3CCc4cc(Cn5nc(-c6ccc7oc(N)nc7c6)c6c(N)ncnc65)ccc4C3)[C@H](OC)C2)C[C@@H](O)[C@H](C)/C=C(\C)[C@@H](O)[C@@H](OC)C(=O)[C@H](C)C[C@H](C)/C=C/C=C/C=C/1C	phase 1 dose escalation, item: headache	advanced solid tumour patients	intravenous, 8 mg weekly, grade ≥3	–	TRAE incidence	0%
CN1CCN(S(=O)(=O)c2cc([N+](=O)[O-])ccc2N(CCOS(C)(=O)=O)CCOS(C)(=O)=O)CC1	–	naive NOD/SCID mice, pooled blood	intraperitoneal, 12.5 mg/kg, week 4	–	sodium	155 mmol/L
CCCCN1CCC(COC(=O)c2ccc(N)c(O[11CH3])c2)CC1	PET	rhesus monkey, striatum	–	–	peak uptake	4 to 7 SUV
COc1ccc2nc3cc(Cl)ccc3c(Nc3cc(CN4CCCC4)c(O)c(CN4CCCC4)c3)c2n1	–	mouse, blood	intraperitoneal, 57 mg/kg	–	lymphocyte count	4.49 10⁹/L
COc1ncccc1-c1cnn2ccc(N3CCN(C(=O)OC(C)C)CC3)nc12	–	mouse open field, plasma	oral, 10 mg/kg, 60 min	–	free concentration	76 nM
COc1ccc(-c2c(-c3ccc(C#N)c(F)c3)nc(N3CCC(N)CC3)n(C)c2=O)cc1F	item: Nausea	human patients	oral, dose not given, any grade, dose escalation, NG	–	treatment-related adverse event incidence	4%
C[C@]1(CO)Cc2ncn(-c3ccc(C#N)c(Cl)c3)c2C(=O)O1	–	human	40 mg, Japanese multiple ascending dose	–	drug-related ALT increase incidence	2.8%
CC(C)C[C@H](NC(=O)[C@H](CCCCN)NC(=O)OCC1c2ccccc2-c2ccccc21)C(=O)N[C@H](C(=O)N[C@@H](Cc1ccccc1)C(=O)N[C@@H](Cc1ccccc1)C(=O)N[C@@H](CCCCN)C(=O)NCC(=O)N[C@@H](Cc1ccccc1)C(=O)N[C@@H](C)C(=O)N[C@@H](Cc1c[nH]c2ccccc12)C(=O)N[C@@H](CC(N)=O)C(=O)N[C@H](C(=O)N[C@H]1CSSC[C@@H](C(=O)N[C@@H](Cc2c[nH]cn2)C(=O)N[C@@H](CCCNC(=N)N)C(=O)N[C@@H](CCCNC(=N)N)C(=O)N[C@@H](C)C(=O)N[C@@H](CC(N)=O)C(N)=O)NC(=O)[C@H](C(C)C)NC(=O)[C@H](CCCNC(=N)N)NC(=O)[C@H](C(C)C)NC(=O)CNC(=O)[C@H](CC(N)=O)NC(=O)[C@H](CCCNC(=N)N)NC(=O)[C@H](Cc2ccc(O)cc2)NC(=O)[C@H](C(C)C)NC1=O)C(C)C)C(C)C	HPLC	trypsin buffer	1.00 h, 37 °C, with: trypsin 1 % w/v	–	peptide remaining	69.4% and 60.9% and 66.5%
Nc1ncnc2c1ncn2[C@@H]1O[C@@H]2COP(=O)([S-])O[C@@H]3[C@H](O)[C@@H](COP([O-])(=S)O[C@H]2[C@H]1O)O[C@H]3n1cnc2c(N)ncnc21.[Na+].[Na+] (stereo partly drawn)	–	non-tumor-bearing mice, blood	intravenous, 1 mg/kg, toxicity study	–	haematocrit	24.5 ± 1.61%
CCc1ccc(CC/C=C/c2ccc3c(c2)C(=O)CC3)cc1	–	Sprague-Dawley rat, female	oral, 120 mg/kg/day, 14 days	–	Fibrinogen	2.25 g/L
CCCC(CCC)NC(=O)c1ccc2c(c1)OCO2	–	Swiss albino CD-1 mice, male, bone marrow	intraperitoneal, 700 mg/kg, 36 h	–	micronucleated PCEs	0.1%
C[C@H]1COCCN1c1nc(NCc2cccnc2C(F)(F)F)c2cccnc2n1	–	male CD-1 mouse, femur bone marrow	oral, 1000 mg/kg twice, 48 h, group mean	–	micronucleated PCE	0.08%
Clc1cc2c(cc1Cl)Oc1c(ccc(Cl)c1Cl)O2	ultrafiltration	cow milk whey	2000 nM nominal in whole milk	–	final permeate concentration	6.68 nM
C/C(=N\C#N)N(C)Cc1ccc(Cl)nc1	–	soil	28 days, nominal 0.37	–	recovery	7%
N[C@@H]1c2ccccc2OC12CCN(c1cnc3c(N4CCCc5ncccc54)n[nH]c3n1)CC2	–	human	50 mg once daily, cycle 2	–	left ventricular ejection fraction	55%
C[C@@H](NC(=O)N1C(=O)[C@H](Cc2ccnc(N)c2)[C@H]1C(=O)O)C1CCCCC1	–	healthy adult Chinese volunteers	continuous intravenous infusion, 1.0 mg/kg/h, 5-day infusion, CTCAE 5.0 grading	–	incidence of urine leukocyte esterase positive	12.5%

Structure (SMILES)	test	test system	conditions	how to read	measurement	value
O=C(Nc1ccccc1)C1CCN(C(=O)Oc2cccnc2)CC1	psychotropic effects VAS	healthy women	100 mg	baseline: pre-dose baseline, direction not given	change in Time score	0.2
C[C@@H]1OC(=O)NN=C1c1ccc(-c2ccc(F)cc2)c(C(F)(F)F)c1	phase I trial, item: Fatigue worst grade 1	human patients	20 mg loading then 1 mg daily	–	patients with adverse event	100%
Cn1cc(-c2nc(N[C@@H]3CCCC[C@@H]3N)c(F)c3c2C(=O)NC3)cn1	item: Hemoptysis	patients with relapsed or refractory AML	oral, 100 mg once daily	–	hemorrhagic adverse events	14%
O=c1ccc2ncc(=O)n3c2n1C[C@H]3CN1CCC(NCc2cc3c(cn2)OCCC3)CC1	–	male Sprague Dawley rats, Mdr1a/Bcrp knockout	intravenous infusion, 125 mg/kg	–	renal clearance	19.6 ± 2.2 mL/min/kg
CCCCCCCCCCCCCCCC(=O)N[C@@H](CCC(=O)NCCCC[C@H](NC(=O)[C@H](CC(=O)O)NC(=O)[C@H](CO)NC(=O)[C@@H](NC(=O)[C@H](Cc1ccccc1)NC(=O)[C@@H](NC(=O)CNC(=O)[C@H](CCC(N)=O)NC(=O)[C@H](CO)NC(=O)[C@@H](N)Cc1c[nH]cn1)[C@@H](C)O)[C@@H](C)O)C(=O)N[C@@H](CO)C(=O)N[C@@H](CCC(=O)O)C(=O)N[C@@H](Cc1ccc(O)cc1)C(=O)N[C@@H](CC(C)C)C(=O)N[C@@H](CC(=O)O)C(=O)N[C@@H](CO)C(=O)N[C@@H](CCC(=O)O)C(=O)N[C@@H](CCCNC(=N)N)C(=O)N[C@@H](C)C(=O)N[C@@H](CCCNC(=N)N)C(=O)N[C@@H](CC(=O)O)C(=O)N[C@@H](Cc1ccccc1)C(=O)N[C@H](C(=O)N[C@@H](C)C(=O)N[C@@H](Cc1c[nH]c2ccccc12)C(=O)N[C@@H](CC(C)C)C(=O)N[C@@H](CCC(=O)O)C(=O)N[C@@H](C)C(=O)NCC(=O)NCC(=O)O)C(C)C)C(=O)O	–	human, CrCl < 20 mL/min	sc, 100 µg single dose	–	injection site bruising	0%
CC(=O)c1c(C)c2cnc(Nc3ccc(C4CCN(CCS(C)(=O)=O)CC4)cn3)nc2n(C2CCCC2)c1=O	–	human, plasma	oral, 75 mg twice daily, day 1, single dose, with: letrozole	–	AUC(0-t)	595 ng·h/mL
CC(=O)Nc1cccc(-n2c(=O)n(C3CC3)c(=O)c3c(Nc4ccc(I)cc4F)n(C)c(=O)c(C)c32)c1	–	Japanese patients	part	–	discontinuation due to adverse event	17%
COc1cc2c(Oc3ccc4[nH]c(C)cc4c3F)ccnc2cc1OCC1(N)CC1	–	paediatric recurrent refractory sarcoma	12 mg	–	grade 3 sinus arrhythmia	0%
CC(C)[C@H](N)C(=O)NCCCS(=O)(=O)O	–	human, plasma	oral, 265 mg twice daily, week 65, steady state	–	AUC(0-8h)	11200 ng·h/mL
CN(N=O)[C@H]1CC[C@@H](c2ccc(Cl)c(Cl)c2)c2ccccc21	–	cell culture medium	–	–	precipitation concentration	100 to 1000 µM
O=S(=O)(Nc1ccccc1)c1ccc(NC(=S)Nc2ccccc2)cc1	–	mouse, male, kidney	oral, 20 mg/kg daily, 14 days	baseline: body weight	relative organ weight	1.64%
CC(C)(C)c1cc(-n2nc3ccccc3n2)c(O)c(C(C)(C)C)c1	exposure assessment	human, age 21-60 years	spray sunscreen	–	mean daily dermal uptake	4.31 ng/kg body weight/day
COc1cc(NC(=O)CCN2CCC(OC(=O)Nc3ccccc3-c3ccccc3)CC2)c(Cl)cc1CNC[C@H](O)c1ccc(O)c2[nH]c(=O)ccc12	–	human	oral	–	absorption rate constant	0 h⁻¹
COc1c(N2CC3CCCNC3C2)c(F)cc2c(=O)c(C(=O)OCc3cnc([N+](=O)[O-])s3)cn(C3CC3)c12.O=C(O)C(F)(F)F (stereo not drawn)	cyclic voltammetry	anhydrous acetonitrile	concentration not given	baseline: Ag/AgCl	reduction potential	-0.63 V
CC[C@H](C)[C@H](NC(=O)[C@H](CC(C)C)NC(=O)[C@H](CCCCN)NC(=O)[C@@H](NC(=O)[C@H](C)NC(=O)[C@H](CCC(=O)O)NC(=O)[C@H](Cc1c[nH]cn1)NC(=O)[C@@H](NC(=O)[C@H](CCCCN)NC(=O)[C@H](CCC(N)=O)NC(=O)[C@H](Cc1ccccc1)NC(=O)[C@@H](NC(=O)[C@H](CCCCN)NC(=O)[C@@H](N)CCCCN)C(C)C)[C@@H](C)CC)[C@@H](C)CC)C(N)=O	hemolysis	mouse erythrocytes	–	–	HC10	256 µM
Cc1c(COC(=O)[C@@H]2[C@H](/C=C(\Cl)C(F)(F)F)C2(C)C)cccc1-c1ccccc1 (racemic)	item: CYP2C19	human, age 1 year, recombinant human CYP2C19	0.1 µM	–	enzyme contribution to clearance	51.7%
CC(C)[C@@H]1NC(=O)CNC(=O)[C@H](CC(N)=O)NC(=O)[C@H](CCCNC(=N)N)NC(=O)[C@H](Cc2ccc(O)cc2)NC(=O)[C@H](C(C)C)NC(=O)[C@@H](NC(=O)[C@@H](NC(=O)[C@H](CC(N)=O)NC(=O)[C@H](Cc2c[nH]c3ccccc23)NC(=O)[C@H](C)NC(=O)[C@H](Cc2ccccc2)NC(=O)CN)C(C)C)CSSC[C@@H](C(=O)N[C@@H](Cc2cnc[nH]2)C(=O)N[C@@H](CCCNC(=N)N)C(=O)N[C@@H](CCCNC(=N)N)C(=O)N[C@@H](C)C(=O)N[C@@H](CC(N)=O)C(N)=O)NC(=O)[C@H](C(C)C)NC(=O)[C@H](CCCNC(=N)N)NC1=O	–	ICR mice, blood	intraperitoneal, 5 mg/kg, day 5	–	mean platelet volume	6.5 ± 0.31 fL
CCN1[C@@H](C(=O)NC23CCC(C(=O)O)(CC2)CC3)[C@H](c2cccc(Cl)c2F)[C@]2(C(=O)Nc3cc(Cl)ccc32)C12CCCCC2	–	patients with advanced solid tumours	oral, 150 mg	–	Thrombocytopenia incidence	62.5%
